Assay results pooled from the literature.
Numbered parts are unrelated; each lists some results of a single study.
Sequence of UniProt P9WI81 (whole entry, looked up): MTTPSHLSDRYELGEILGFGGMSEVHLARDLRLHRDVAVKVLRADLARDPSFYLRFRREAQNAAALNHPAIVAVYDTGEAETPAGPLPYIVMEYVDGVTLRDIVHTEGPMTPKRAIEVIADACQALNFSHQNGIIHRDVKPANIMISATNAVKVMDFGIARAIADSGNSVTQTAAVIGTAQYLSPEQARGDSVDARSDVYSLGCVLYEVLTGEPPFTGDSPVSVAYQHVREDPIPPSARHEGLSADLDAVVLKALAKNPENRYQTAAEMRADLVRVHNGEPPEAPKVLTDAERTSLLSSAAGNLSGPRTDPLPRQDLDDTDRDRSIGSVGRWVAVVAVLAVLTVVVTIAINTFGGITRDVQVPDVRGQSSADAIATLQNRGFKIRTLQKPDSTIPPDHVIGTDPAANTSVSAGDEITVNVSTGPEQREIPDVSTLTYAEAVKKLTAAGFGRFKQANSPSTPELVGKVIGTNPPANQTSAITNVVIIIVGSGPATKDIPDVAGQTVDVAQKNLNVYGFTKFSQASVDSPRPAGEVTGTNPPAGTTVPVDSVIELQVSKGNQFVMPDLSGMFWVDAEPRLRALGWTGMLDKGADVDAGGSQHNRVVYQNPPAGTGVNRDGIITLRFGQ
Sequence of UniProt P55212 (whole entry, looked up): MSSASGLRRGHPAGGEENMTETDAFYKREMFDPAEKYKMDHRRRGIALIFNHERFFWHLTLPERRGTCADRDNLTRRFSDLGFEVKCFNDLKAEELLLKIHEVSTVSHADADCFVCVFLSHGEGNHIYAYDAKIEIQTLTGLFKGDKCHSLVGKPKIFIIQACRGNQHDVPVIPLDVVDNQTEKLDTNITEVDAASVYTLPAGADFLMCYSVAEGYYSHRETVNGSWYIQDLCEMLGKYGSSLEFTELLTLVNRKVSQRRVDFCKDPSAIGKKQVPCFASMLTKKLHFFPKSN

Study 1 — mode: degrader; technique: HiBiT; cells: HEK293
SMILES: O=C1CCC(N2Cc3c(ccc4c3OCC43CCN(Cc4ccccc4)CC3O)C2=O)C(=O)N1 (stereo not drawn)
Target: CRBN/Zinc finger protein Helios (Homo sapiens, UniProt Q96SW2+Q9UKS7)
Sequence of UniProt Q9UKS7 (whole entry, looked up): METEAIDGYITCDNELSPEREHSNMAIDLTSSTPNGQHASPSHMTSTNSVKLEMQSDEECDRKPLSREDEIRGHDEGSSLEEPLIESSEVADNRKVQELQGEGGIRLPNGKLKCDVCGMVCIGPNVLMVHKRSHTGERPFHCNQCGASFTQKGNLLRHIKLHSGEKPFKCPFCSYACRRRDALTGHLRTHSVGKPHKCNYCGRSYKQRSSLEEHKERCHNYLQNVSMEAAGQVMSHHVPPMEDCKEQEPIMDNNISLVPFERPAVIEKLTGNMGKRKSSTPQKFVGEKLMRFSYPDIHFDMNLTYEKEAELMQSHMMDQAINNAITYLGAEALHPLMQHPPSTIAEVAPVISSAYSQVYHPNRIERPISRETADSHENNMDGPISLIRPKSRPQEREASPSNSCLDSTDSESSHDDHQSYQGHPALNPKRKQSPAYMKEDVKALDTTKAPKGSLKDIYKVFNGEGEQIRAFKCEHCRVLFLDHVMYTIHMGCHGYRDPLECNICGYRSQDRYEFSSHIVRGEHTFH
Sequence of UniProt Q96SW2 (whole entry, looked up): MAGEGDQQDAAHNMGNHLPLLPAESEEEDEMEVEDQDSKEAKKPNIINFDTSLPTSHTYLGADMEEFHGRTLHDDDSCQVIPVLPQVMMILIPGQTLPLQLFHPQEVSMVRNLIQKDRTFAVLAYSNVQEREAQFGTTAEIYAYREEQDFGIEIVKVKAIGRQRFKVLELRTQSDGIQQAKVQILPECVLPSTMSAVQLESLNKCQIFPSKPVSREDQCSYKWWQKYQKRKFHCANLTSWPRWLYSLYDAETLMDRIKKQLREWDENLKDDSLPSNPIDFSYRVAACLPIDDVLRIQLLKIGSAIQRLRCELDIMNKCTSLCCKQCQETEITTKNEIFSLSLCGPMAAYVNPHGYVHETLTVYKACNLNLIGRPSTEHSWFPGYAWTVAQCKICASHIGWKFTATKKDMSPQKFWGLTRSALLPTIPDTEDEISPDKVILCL
The protein remaining was 106% (0.1694 nM).
It gave 109% for protein remaining (4.572 nM).
For 1.524 nM: protein remaining read 93.4%.
It gave 97.2% for protein remaining (13.72 nM).
41.15 nM — protein remaining: 91%.
3333.33 nM — protein remaining: 66.9%.

Study 2 — observed: enzyme activity; mode: inhibitor
Structure (SMILES): CC[C@H](C)[C@H](NC(C)=O)C(=O)N[C@@H](CCC(=O)O)C(=O)N[C@H](C(=O)N[C@H](C=O)CC(=O)O)[C@@H](C)O
CASP8: Caspase-8 (CASP8, Homo sapiens, UniProt Q14790)
Sequence of UniProt Q14790 (whole entry, looked up): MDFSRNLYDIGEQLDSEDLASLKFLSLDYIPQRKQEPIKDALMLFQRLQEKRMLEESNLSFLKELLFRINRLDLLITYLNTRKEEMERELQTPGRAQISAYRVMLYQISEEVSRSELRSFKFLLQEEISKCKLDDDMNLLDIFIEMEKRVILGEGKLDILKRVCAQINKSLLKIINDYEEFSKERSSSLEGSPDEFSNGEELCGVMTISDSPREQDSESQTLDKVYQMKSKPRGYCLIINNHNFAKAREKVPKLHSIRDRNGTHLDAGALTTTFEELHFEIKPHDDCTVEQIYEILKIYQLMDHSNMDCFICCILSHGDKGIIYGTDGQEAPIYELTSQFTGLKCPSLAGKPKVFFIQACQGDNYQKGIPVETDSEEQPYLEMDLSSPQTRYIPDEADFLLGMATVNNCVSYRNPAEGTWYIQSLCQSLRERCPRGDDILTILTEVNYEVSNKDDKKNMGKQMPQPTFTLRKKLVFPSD
For CASP8; 1 nM: inhibition read 0%.
For Caspase-6 (CASP6, Homo sapiens, UniProt P55212); 50 nM: inhibition read 8%.
CASP8; 10 nM — inhibition: 38%.

Other studies, line by line
COc1cc(-c2nc3ccc(C(=O)NCCCN(C)C)cc3n2C2CCC2)cc(OC)c1OC has a remaining binding of 100% (Serine/threonine-protein kinase PknB (pknB, Mycobacterium tuberculosis, UniProt P9WI81); binding, competition with immobilised ligand; 1 µM).
CCN1/C(=C/C=C2\CCCC(/C=C/C3=[N+](CC)c4ccccc4C3(C)C)=C2NCCCCCCCCN2CCC(Nc3nc4ccccc4n3Cc3ccc(F)cc3)CC2)C(C)(C)c2ccccc21 — result for “log2 fold change”: -1.58 (U-87 MG; item: MTBP mRNA; concentration not given; reference: DMSO).
For N=C(N)NCCCCCCN1CCC23c4c5ccc(O)c4OC2c2nc4ccccc4cc2CC3(O)C1C5 (stereo not drawn), the seizure score was 0 (modified Racine scale; C57BL/6J mice, male; intracerebroventricular, 100 nmol, 25 min; direction not given).

Some of these lines once more (study 1):
It gave 97.2% for protein remaining (13.72 nM).
